Measured values from different studies.
Protocols differ between the studies behind these lines. “And” joins repeats or separate records; there may be more than shown.
Cell line: HL-60

SMILES | test | setting | how to read | endpoint | result
CC12OOC(C)(OO1)C2CCC(=O)OCCNc1ccnc2cc(Cl)ccc12 (stereo not shown) | cell growth or viability, resazurin | 10 µM, 48 h |  | inhibition | 65.2%
CCC(=C(c1ccc(Cl)cc1)c1ccc(OCCCN(C)C)cc1)c1ccc(OC)cc1 | cell growth or viability, SRB |  |  | GI50 | 1.15 µM
F[P-](F)(F)(F)(F)F.F[P-](F)(F)(F)(F)F.[Ru+2].c1ccc(-c2ccccn2)nc1.c1ccc(-c2ccccn2)nc1.c1csc(-c2cc3cccnc3c3ncccc23)c1 | cell viability | visible light | relative to: dark EC50 over light EC50 | phototherapeutic index | > 44
CC(=C(c1ccc(O)cc1)c1ccc(Cl)cc1)c1ccc(Cl)cc1 | cell growth or viability, SRB |  |  | GI50 | 0.64 µM
C[C@@H]1N=C(c2ccccc2)c2cc(C#CCCCC(=O)NO)ccc2N(C)C1=O | apoptosis, flow cytometry | 48 h |  | IC50 | 1.4 to 2.1 µM
F[P-](F)(F)(F)(F)F.F[P-](F)(F)(F)(F)F.[Ru+2].c1ccc(-c2ccccn2)nc1.c1ccc(-c2ccccn2)nc1.c1csc(-c2ccc(-c3ccc(-c4cc5cccnc5c5ncccc45)s3)s2)c1 | cell growth or viability, resazurin | dark |  | EC50 | > 100 µM and 168 µM
C#CCCCN(CCNc1ccnc2cc(Cl)ccc12)C(=O)CCC(=O)O[C@@H]1O[C@@H]2O[C@@]3(C)CC[C@H]4[C@H](C)CCC([C@H]1C)[C@@]24OO3 (stereo partly shown) | cell growth or viability, resazurin | 10 µM, 48 h |  | inhibition | 62.8%
CC[C@H](C)[C@H](NC(=O)[C@H](CCCNC(=N)N)NC(=O)[C@H](CCCNC(=N)N)NC(=O)[C@H](CC(C)C)NC(=O)[C@H](Cc1c[nH]c2ccccc12)NC(=O)[C@H](CCCCN)NC(=O)[C@H](CCCNC(=N)N)NC(=O)[C@H](CCCCN)NC(=O)[C@H](CCCNC(=N)N)NC(=O)[C@H](CCCNC(=N)N)NC(=O)CN)C(=O)NCC(=O)N[C@@H](CCCCN)C(=O)NCC(=O)N[C@H](C(=O)N[C@@H](CCCCN)C(=O)N[C@H](C(=O)N[C@H](C(=O)NCC(=O)NCC(=O)N[C@@H](C)C(=O)N[C@@H](C)C(=O)N[C@@H](CC(C)C)C(=O)N[C@@H](CC(=O)O)C(=O)N[C@@H](Cc1c[nH]cn1)C(=O)N[C@@H](CC(C)C)C(N)=O)[C@@H](C)CC)[C@@H](C)CC)C(C)C |  | 32 µg/mL, 5 min |  | lysed cells | 30%
CC12CCC3(CCC(=O)OCCNc4ccnc5cc(Cl)ccc45)C(C)(OOC3(C)O1)O2 | cell growth or viability, resazurin | 10 µM, 48 h |  | inhibition | 9.9%
CN(C)CC1C(=O)OC2C1CCC1(C)CC1CCC1(C)OC21 (stereo not shown) | cell growth or viability, resazurin |  |  | IC50 | 6.5 µM

A few entries again:
SMILES | test | setting | how to read | endpoint | result
C[C@@H]1N=C(c2ccccc2)c2cc(C#CCCCC(=O)NO)ccc2N(C)C1=O | apoptosis, flow cytometry | 48 h |  | IC50 | 1.4 to 2.1 µM
